Published values gathered from unrelated publications.
“And” joins repeats or separate records; there may be more than shown. ± marks the error that the study gave.

SMILES | test | test system | conditions | scale | measurement | value
CC(c1cc2ccccc2s1)N(O)C(N)=O (centres unmarked) | item: TXB2 | human whole blood | 3 µM, added: Escherichia coli |  | amount | 24700 ± 13100 pg/mL blood
N#Cc1ccc2c(-c3ccncc3)c(-c3ccc(F)cc3)nn2c1 | kinase binding, competitor, MIB/MS competition, item: HST7 | Candida albicans cell lysate | 10 µM | relative to: DMSO | log2 fold change | -0.188
N#Cc1ccc2c(c1)[C@H]1CCCN(C(=O)c3ccc4[nH]cnc4c3)[C@H]1C2 | item: androstenedione | human female, Phase II trial | oral, 80 mg once daily, last treatment, HPA axis, mean |  | plasma level | 4.16 nmol/L
Cc1cc(C)c(CNC(=O)c2cc(Cl)c3c(c2C)O[C@@](C)([C@H]2CC[C@H](N(C)C)CC2)O3)c(=O)[nH]1 | IWG criteria | relapsed/refractory PTCL patients | dose not given |  | best response not assessed | 9%
O=C(OC(C(F)(F)F)C(F)(F)F)N1CCN(Cc2cccc(Oc3ccccc3)c2)CC1 | PET | rhesus monkey, frontal cortex | intravenous, 0.01 mg/kg, pretreatment blocking, added: [18F]T-401 |  | tracer distribution volume | 11.2 mL/cm3
N#Cc1ccc2c(c1)[C@H]1CCCN(C(=O)c3ccc4[nH]cnc4c3)[C@H]1C2 |  | human, urine | 40 mg, 336 h, day 14 over day -1 | relative to: placebo and baseline | total urinary corticosteroids | 148 % change
CN(CCOc1ccc(CC2SC(=O)NC2=O)cc1)c1ccccn1 (centres unmarked) | deuterium-hydrogen exchange | aqueous phosphate buffer | pH 7.4, 37 °C |  | exchange rate constant | -0.117 h⁻¹
COc1cc(O)c(CC=C(C)C)c(O)c1C(=O)/C=C/c1ccc(O)cc1 |  | male Tac:SW conventional mice, high-fat diet | in diet, 60 mg/kg/day, 10 weeks |  | fasting plasma glucose | 133 mg/dL
COC[C@@H](c1ccc(C(F)(F)F)cc1)N1CCN(C2(C)CCN(C(=O)c3c(C)ncnc3C)CC2)C[C@@H]1C |  | HIV-1 infected patients, plasma | dose not given, week 16, with optimized background regimen | relative to: baseline | change in HIV-1 RNA | -1.98 log10 copies/mL
O=C(O)CNC(=O)Cc1ccccc1 |  | ventricular cardiomyocytes, C57BL/6 mouse | dose not given, 0.004 s |  | sarcomere length | 1.72 µm
CN[C@@H](C)C(=O)N[C@H]1CN(S(=O)(=O)c2cccc(S(=O)(=O)N3CC[C@H]4CC[C@@H](C(=O)NC(c5ccccc5)c5ccccc5)N4C(=O)[C@@H](NC(=O)[C@H](C)NC)C3)c2)CC[C@H]2CC[C@@H](C(=O)NC(c3ccccc3)c3ccccc3)N2C1=O | RECIST 1.1 | advanced pancreatic cancer patients | dose not given, efficacy-evaluable, added: AG |  | best response stable disease | 40%
C=CCn1c(=O)c2cnc(Nc3ccc(N4CCN(C)CC4)cc3)nc2n1-c1ccc2c(n1)[C@@](O)(CC)CC2 |  | ZR-75-1 xenograft, BALB/c nude mice | oral, 80 mg/kg, day 28, once daily days 0-21 and 25-27 |  | tumour growth inhibition | 22%
COc1ncc(-c2nc3c(n2C(C)C)[C@H](c2ccc(Cl)cc2)N(c2cc(Cl)cn(C)c2=O)C3=O)c(OC)n1 | antileukemic activity, item: treatment failure, indeterminate cause | human, acute myeloid leukaemia | 45 mg, low-dose, RDE |  | best overall response | 0%
C[C@H](NC(=O)c1c(C(F)F)nn(C)c1Oc1cccc(C(F)(F)F)c1)c1ccc(C(=O)O)cc1 | irRECIST | human, advanced tumours | 125 mg | best overall response | not evaluable | 37.5%
OC(CCN1CCCCC1)(c1ccccc1)C1CC2C=CC1C2 (centres unmarked) | resting-state EEG | healthy elderly humans | oral, 4 mg, eyes open, LS mean |  | EEG power, gamma, Fz-Cz | 0.6 µV²
CC(C)NCC(O)c1ccc(O)c(O)c1 (centres unmarked) |  | ventricular cardiomyocytes, C57BL/6 mouse | dose not given, 0.756 s |  | sarcomere length | 1.72 µm
CN[C@@H]1COc2c(S(=O)(=O)NC(=O)Nc3c4c(cc5c3CCC5)CCC4)cnn2C1 | item: IL-18 | human participants, whole blood ex vivo | 900 mg twice daily, multiple doses, 8 h, IL-18, circulating, adjusted for, added: LPS/ATP | relative to: baseline | inhibition | 101%
C[C@H]1O[C@@H](O[C@H]2CC[C@@]3(C)[C@@H](CC[C@]4(C)[C@@H]3C=C[C@]35OC[C@@]6(CCC(C)(C)C[C@H]63)[C@@H](O)C[C@]54C)[C@]2(C)CO)[C@H](O)[C@@H](O[C@@H]2O[C@H](CO)[C@@H](O)[C@H](O)[C@H]2O)[C@H]1O |  | chronic-plus-binge ethanol mice, plasma | oral, 5 mg/kg/day for 7 d, 168 h |  | triglyceride level | 0.942 mM and 1.14 mM and 0.827 mM and 0.748 mM and 0.958 mM and 0.994 mM
NC(=O)c1cnc2[nH]ccc2c1N[C@@H]1[C@@H]2CC3C[C@H]1C[C@@](O)(C3)C2 | flow cytometry, item: CD8+ central memory T cells | Japanese healthy subjects, peripheral blood | oral, 10 mg twice daily, day 4 |  | change from baseline | -0.48%
C[C@H]1C[C@H]2CSC(N)=N[C@@]2(c2nc(NC(=O)c3ccc(OC(F)F)cn3)cs2)CO1 | item: Aβ1-40 | healthy adults, plasma | 540 mg single dose, 48 h post-dose | relative to: placebo | percent change from baseline | -90.3%

A few entries again:
SMILES | test | test system | conditions | scale | measurement | value
Cc1cc(C)c(CNC(=O)c2cc(Cl)c3c(c2C)O[C@@](C)([C@H]2CC[C@H](N(C)C)CC2)O3)c(=O)[nH]1 | IWG criteria | relapsed/refractory PTCL patients | dose not given |  | best response not assessed | 9%
O=C(OC(C(F)(F)F)C(F)(F)F)N1CCN(Cc2cccc(Oc3ccccc3)c2)CC1 | PET | rhesus monkey, frontal cortex | intravenous, 0.01 mg/kg, pretreatment blocking, added: [18F]T-401 |  | tracer distribution volume | 11.2 mL/cm3
N#Cc1ccc2c(c1)[C@H]1CCCN(C(=O)c3ccc4[nH]cnc4c3)[C@H]1C2 |  | human, urine | 40 mg, 336 h, day 14 over day -1 | relative to: placebo and baseline | total urinary corticosteroids | 148 % change
